Measured values gathered from unrelated publications.
Each line is one published result; not all experiments were run side by side.

| SMILES | assay | test system | setting | endpoint | result |
| --- | --- | --- | --- | --- | --- |
| COc1cc(Nc2ncc3c(n2)-c2ccc(Cl)cc2C(c2c(F)cccc2OC)=NC3)ccc1C(=O)O | refers to: increased ALT, grade 3 | cancer patients, phase 1/2 | oral, dose not given, added: pembrolizumab | patients with adverse event | 4% |
| O=C(Nc1nc2cccc(-c3ccc(CN4CCS(=O)(=O)CC4)cc3)n2n1)C1CC1 | – | rheumatoid arthritis patients | oral, 100 mg twice daily, 4 weeks, TEAE regardless of relatedness | patients with Cystitis | 0% |
| C=CC(=O)NC1CCN(c2ncc3ncnc(Nc4ccc(Oc5ccc6c(c5)ncn6C)c(C)c4)c3n2)CC1 | – | male patients | oral, dose not given, on-treatment adverse events | patients with upper abdominal pain | 0% |
| FC(F)(F)c1ccc(CNc2ccc(Cc3c[nH]c4ncc(Cl)cc34)cn2)cn1 | refers to: skin hypopigmentation | non-TGCT solid tumour patients | oral, 1000 mg/day, all grades | patients with treatment-related adverse event | 4% |
| Cc1cc(-c2nnc(N)nc2-c2ccc(F)cc2)cc(Cl)n1 | refers to: rash | post-IO NSCLC patients | oral, 100 mg once daily, treatment-related, grade 1 | patients with immune-mediated AE | 5.9% |
| Cc1cc(NC2CCN(C(=O)OC3CCN(C(=O)/C=C/CN(C)C)C3)CC2)n2ncc(C(C)C)c2n1 (stereo not drawn) | – | patients with advanced solid tumours | dose not given, QD arm, any grade | patients with Dyspnea | 16% |
| CNC(=O)c1cc(Oc2ccc(NC(=O)Nc3cc(C(C)(C)C)nn3-c3ccc4ncccc4c3)c(F)c2)ccn1 | – | patients | oral, dose not given, cycles 1 and 2, Low Cmax subgroup | patients with visual abnormalities | 18% |
| CCOc1c([C@H](C)n2nc(C)c3c(N)ncnc32)cc(Cl)c(F)c1[C@@H]1CNC(=O)C1 | refers to: QTcF ≤450 ms | previously treated B-cell malignancy | oral, 5 mg once daily, baseline QTcF ≤450 ms | patients | 100% |
| CNC(=O)c1ccc(-c2cnc3ncc(Cc4ccc5ncccc5c4)n3n2)cc1F | refers to: Headache, all grades | cancer patients | oral, 600 mg twice daily, expansion cohort, any causality | patients with adverse event | 11% |

Repeated from above:
| SMILES | assay | test system | setting | endpoint | result |
| --- | --- | --- | --- | --- | --- |
| FC(F)(F)c1ccc(CNc2ccc(Cc3c[nH]c4ncc(Cl)cc34)cn2)cn1 | refers to: skin hypopigmentation | non-TGCT solid tumour patients | oral, 1000 mg/day, all grades | patients with treatment-related adverse event | 4% |
